Assay results of several laboratories.
Compare with care: the assays were run in different laboratories. Values joined by “and” are separate records of one study, mostly repeats; a detail may differ. Numbers after ± are the reported error.

| Compound | test | system | conditions | Cmax |
| --- | --- | --- | --- | --- |
| CC[C@@H]([C@H](C)O)n1ncn(-c2ccc(N3CCN(c4ccc(OC[C@@H]5CO[C@@](Cn6cncn6)(c6ccc(F)cc6F)C5)cc4)CC3)cc2)c1=O | – | Sprague-Dawley rats, plasma | oral, 40 mg/kg, together with: zanubrutinib 16 mg/kg | 1310 ± 416 ng/mL |
| CCc1c(-c2ccccc2)c(-c2ccccc2)nn1-c1ccccc1-c1cccc(OCC(=O)O)c1 | – | Sprague-Dawley rat | oral, dose not given | 1310 ng/mL and 1260 ng/mL and 2090 ng/mL |
| CCCCCCCCc1ccc(CCC(N)(CO)CO)cc1 | – | male Sprague-Dawley rat, plasma | oral, 1 mg/kg, single dose | 4.19 ng/mL |
| CC(=O)CC(c1ccccc1)c1c(O)c2ccccc2oc1=O (stereo not drawn) | – | Sprague-Dawley rat, male, plasma | oral, 0.2 mg/kg, together with: miconazole 30 mg/kg oral, 30 min before | 321 ± 116 ng/mL |
| Cc1cccc(CNC(=O)c2cn(CCNC(=O)c3ccccc3S)c3cc4c(cc3c2=O)OC(F)(F)O4)n1 | – | Sprague-Dawley rat, male, plasma | intramuscular, 10 mg/kg of parent drug | 7.94 ± 1.29 ng/mL |
| COC(=O)C1=CO[C@@H](O[C@@H]2O[C@H](CO)[C@@H](O)[C@H](O)[C@H]2O)[C@@H]2C(CO)=CC[C@H]12 | – | rat, plasma | oral, 500 mg/kg Eu extract, dosed as Eu extract | 91.8 ± 18.8 ng/mL |
| C=CC(=O)N1CCC(Oc2cc3c(Nc4ccc(Cl)c(Cl)c4F)ncnc3cc2OC)CC1 | – | Sprague-Dawley rat, male, plasma | oral, 2 mg/kg, together with: vehicle pretreatment | 648 ± 137 ng/mL |
| CCCCCCCOc1ccc(CCC(N)(CO)CO)cc1C(F)(F)F.Cl | – | male Sprague-Dawley rat, plasma | oral, 1 mg/kg, single dose | 4.07 ng/mL |
| C=CC(=O)N1CCC[C@@H](n2nc(-c3ccc(Oc4ccccc4)cc3)c3c(N)ncnc32)C1 | – | Wistar rat, plasma | oral, dose not given, suspension | 453 ± 13.6 ng/mL |
| Cc1nc(-c2cnc(NC(C)C)n(C)c2=O)ccc1Oc1ccnc(-c2cnn(C)c2)c1 | – | Sprague-Dawley rat, male, plasma | intravenous, 1 mg/kg, crossover study | 2910 ng/mL |
| CSc1ccccc1C(=O)NCCn1cc(C(=O)NCc2cccc(C)n2)c(=O)c2cc3c(cc21)OC(F)(F)O3 | – | Sprague-Dawley rat, male, plasma | intravenous, 5 mg/kg of parent compound | 527 ± 79.1 ng/mL |
| Cc1ccc(S(=O)(=O)n2cc3c4c2C(=O)C(NCc2ccc(Cl)cc2)=CC4=NCC3)cc1 | – | Sprague-Dawley rat, plasma | intravenous, 5 mg/kg | 1180 ng/mL and 1360 ng/mL |
| C1=C/COCc2cc(ccc2OCCN2CCCC2)Nc2nccc(n2)-c2cccc(c2)COC/1 | LC-MS/MS | Sprague-Dawley rat, male, plasma | oral, 36 mg/kg, together with: isavuconazole 20 mg/kg oral | 1320 ± 994 ng/mL |
| O=C1c2ccncc2C(=O)c2c1[nH]c1ccccc21 | – | Sprague-Dawley rat, male, plasma | intravenous, 1 mg/kg | 618 ± 236 nM |
| CC(=O)CC(c1ccccc1)c1c(O)c2ccccc2oc1=O (stereo not drawn) | – | Sprague-Dawley rat, male, plasma | oral, 0.3 mg/kg/day, 1 week, without PNS | 1430 ± 78.5 ng/mL |
| Cn1c(C(F)(F)F)cc(=O)n(-c2cc(Oc3cccnc3OCC(=O)O)c(Cl)cc2F)c1=O | – | Crl:CD(SD) rats, female, plasma | oral diet, 50 ppm in diet, day 1, 90-day toxicity study | 85.4 ng/mL |
| CCc1cc(C(=O)NC)c2nccc(N3CCc4c(cc(Cn5ccnc5)cc4-c4cn(C)nc4C(F)(F)F)C3=O)c2c1 | – | Sprague Dawley rat, male, plasma | oral, 100 mg/kg twice daily, day 1 | 11900 ng/mL |

| Compound | test | system | conditions | Cmax |
| --- | --- | --- | --- | --- |
| CNC(=O)c1cccc(-c2ccc([C@@H](O)[C@H]3O[C@H](CO)[C@@H](O)[C@H](O)[C@@H]3O)c(C)c2)c1 | – | male Sprague-Dawley rat, plasma | oral, 10 mg/kg, group mean | 18.6 ng/mL |
| CN(C(=O)n1cnc(-c2ccc[n+]([O-])c2)c1)C1CCCCC1 | – | Wistar Han rat, brain | oral, 10 mg/kg, 1 h | 840 ± 51 ng/g |
| CCOCc1nc(O)c(-c2nnc(Cc3ccc(Cl)cn3)o2)c(O)c1-c1c(OC)cccc1OC | – | rat, post surgery, plasma | oral, 0.2 mg/kg once daily, day 6 post surgery | 310 nM |
| CN1CCC[C@H](CN2c3ccccc3Sc3ccccc32)C1.Cl | – | female Wistar rat, heart | oral, 16 mg/kg | 2800 ng/g |
| CCONC(=O)N1CCC[C@H](C(=O)NCc2nc(-c3ccc(C#N)cc3)cs2)C1 | – | Sprague-Dawley rat, male, plasma | oral, 3 mg/kg | 300 nM |
| O=C(O)CCSC[C@H]1O[C@@H]2O[C@H]3[C@H](O)[C@@H](O)[C@@H](O[C@H]4[C@H](O)[C@@H](O)[C@@H](O[C@H]5[C@H](O)[C@@H](O)[C@@H](O[C@H]6[C@H](O)[C@@H](O)[C@@H](O[C@H]7[C@H](O)[C@@H](O)[C@@H](O[C@H]8[C@H](O)[C@@H](O)[C@@H](O[C@H]9[C@H](O)[C@@H](O)[C@@H](O[C@H]1[C@H](O)[C@H]2O)O[C@@H]9CSCCC(=O)O)O[C@@H]8CSCCC(=O)O)O[C@@H]7CSCCC(=O)O)O[C@@H]6CSCCC(=O)O)O[C@@H]5CSCCC(=O)O)O[C@@H]4CSCCC(=O)O)O[C@@H]3CSCCC(=O)O | – | Sprague Dawley rat, plasma | ODD, 5 mg/kg, together with: rocuronium bromide IV | 2030 ng/mL |
| N#CC(Cc1ccc(O)cc1)c1ccc(O)cc1 (stereo not drawn) | item: aglycone | rat, Long-Evans, female, serum | subcutaneous, 2 mg/kg single dose | 1000 ± 440 nM |
| O=c1oc2c(O)c(O)cc3c(=O)oc4c(O)c(O)cc1c4c23 | – | rat, plasma | oral, 500 mg/kg extract, extract | 170 ± 10 ng/mL |
| COc1cc([C@H]2OC[C@H]3[C@@H]2CO[C@@H]3c2ccc(O[C@@H]3O[C@H](CO)[C@@H](O)[C@H](O)[C@H]3O)c(OC)c2)ccc1O[C@@H]1O[C@H](CO)[C@@H](O)[C@H](O)[C@H]1O | – | rat, plasma | oral, 500 mg/kg Eu + 217 mg/kg Pc extract, dosed as combined Eu and Pc extracts | 26.3 ± 21.4 ng/mL |
| Cc1cccc(CNC(=O)c2cn(CCNC(=O)c3ccccc3Sc3c([N+](=O)[O-])ncn3C)c3cc4c(cc3c2=O)OC(F)(F)O4)n1 | – | Sprague-Dawley rat, male, whole blood | intramuscular, 3 mg/kg of parent drug | 15.3 ± 4.8 ng/mL |
| CC(C)c1nc(N(C)S(C)(=O)=O)nc(-c2ccc(F)cc2)c1/C=C/[C@@H](O)C[C@@H](O)CC(=O)O | – | Wistar albino rat, both sexes, plasma | oral, 20 mg/kg | 697 ng/mL and 1110 ng/mL and 348 ng/mL and 1150 ng/mL and 1560 ng/mL |
| COc1cc2nccc(Oc3ccc(NC(=O)NC4CC4)c(Cl)c3)c2cc1C(N)=O | UPLC-MS/MS | Sprague-Dawley rat, male, plasma | oral, 10 mg/kg, without azole co-treatment | 1020 ng/mL |
| COCC(=O)N1CCC[C@H](C(=O)NCc2nc(-c3ccccc3)cs2)C1 | – | Sprague-Dawley rat, male, plasma | oral, 3 mg/kg | 29000 nM |
| N=C(N)NCCNC(=O)C1(Nc2ccccc2)CCN(Cc2ccccc2)CC1 | – | Sprague-Dawley rats (both sexes), plasma | oral, 50 mg/kg | 369 ± 55.7 ng/mL |
| Cc1cc(-c2ccc3cc[nH]c(=O)c3c2)ccc1O[C@H]1O[C@H](CO)[C@@H](O)[C@H](O)[C@@H]1O | – | male Sprague-Dawley rat, plasma | intravenous, 3 mg/kg, group mean | 337 ng/mL |
| CCOCC(=O)N1CCC[C@H](C(=O)NCc2nc(-c3ccc(C#N)nc3)cs2)C1 | – | Sprague-Dawley rat, male, plasma | oral, 3 mg/kg | 12000 nM |

A few entries again:
| Compound | test | system | conditions | Cmax |
| --- | --- | --- | --- | --- |
| CC[C@@H]([C@H](C)O)n1ncn(-c2ccc(N3CCN(c4ccc(OC[C@@H]5CO[C@@](Cn6cncn6)(c6ccc(F)cc6F)C5)cc4)CC3)cc2)c1=O | – | Sprague-Dawley rats, plasma | oral, 40 mg/kg, together with: zanubrutinib 16 mg/kg | 1310 ± 416 ng/mL |
| CCc1c(-c2ccccc2)c(-c2ccccc2)nn1-c1ccccc1-c1cccc(OCC(=O)O)c1 | – | Sprague-Dawley rat | oral, dose not given | 1310 ng/mL and 1260 ng/mL and 2090 ng/mL |
| CCCCCCCCc1ccc(CCC(N)(CO)CO)cc1 | – | male Sprague-Dawley rat, plasma | oral, 1 mg/kg, single dose | 4.19 ng/mL |
| CC(=O)CC(c1ccccc1)c1c(O)c2ccccc2oc1=O (stereo not drawn) | – | Sprague-Dawley rat, male, plasma | oral, 0.2 mg/kg, together with: miconazole 30 mg/kg oral, 30 min before | 321 ± 116 ng/mL |
| Cc1cccc(CNC(=O)c2cn(CCNC(=O)c3ccccc3S)c3cc4c(cc3c2=O)OC(F)(F)O4)n1 | – | Sprague-Dawley rat, male, plasma | intramuscular, 10 mg/kg of parent drug | 7.94 ± 1.29 ng/mL |
